{"data": "Measured values collected from several papers", "note": "Numbered parts are unrelated; each lists some results of a single study."}
{"data": "Sample 1", "target": "Sox-I, HMG box (Salpingoeca helianthica)", "technique": "Spec-seq", "form": "double-stranded DNA, one strand shown", "medium": "in vitro", "tested at": "not given", "setting": "whole probe, mean of replicates", "relative to": "not given", "direction": "lower = stronger binding", "Residues (chain)": "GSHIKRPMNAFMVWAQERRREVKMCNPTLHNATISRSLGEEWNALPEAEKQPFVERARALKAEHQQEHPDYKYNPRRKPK"}
{"Strand": "GAGTCGTCTCGTCAGCACCATGTGCCCGTAGAGCACTCAGGTC", "relative binding energy [ln ratio]": 1.06}
{"Strand": "GAGTCGTCTCGTCAGCACTACAGTTCCGTAGAGCACTCAGGTC", "relative binding energy [ln ratio]": -0.28}
{"Strand": "GAGTCGTCTCGTCAGCACCCGGGTTCCGTAGAGCACTCAGGTC", "relative binding energy [ln ratio]": 1.09}
{"data": "Sample 2", "target": "Interferon regulatory factor 7, full length, phosphomimetic (IRF7, Homo sapiens, UniProt Q92985, residues 1-503, S471D/S472D/S475D/S476D/S477D/S483D/S484D/S487D)", "technique": "protein-binding microarray", "form": "double-stranded DNA, one strand shown", "medium": "in vitro", "tested at": "2200 nM top", "setting": "60-bp whole probe", "together with": "salmon DNA 0.4 mg/ml", "relative to": "random background probes", "direction": "higher = stronger binding", "Target sequence (chain)": "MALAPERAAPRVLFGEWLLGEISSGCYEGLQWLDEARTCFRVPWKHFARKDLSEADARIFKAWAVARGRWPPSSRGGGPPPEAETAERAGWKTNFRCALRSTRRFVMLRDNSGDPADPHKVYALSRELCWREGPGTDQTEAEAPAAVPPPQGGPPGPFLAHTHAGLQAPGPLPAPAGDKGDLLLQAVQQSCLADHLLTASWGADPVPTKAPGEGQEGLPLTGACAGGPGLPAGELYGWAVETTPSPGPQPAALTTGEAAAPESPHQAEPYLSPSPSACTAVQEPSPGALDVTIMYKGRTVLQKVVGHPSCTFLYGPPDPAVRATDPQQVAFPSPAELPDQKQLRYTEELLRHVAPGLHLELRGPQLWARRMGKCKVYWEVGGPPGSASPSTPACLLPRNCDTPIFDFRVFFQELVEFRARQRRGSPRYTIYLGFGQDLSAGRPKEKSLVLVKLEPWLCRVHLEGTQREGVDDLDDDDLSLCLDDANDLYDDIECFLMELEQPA"}
{"Strand": "GCCTAGCACGACGGTCTGGGGTATCGGGACGTGCTAGTCTTGATTCGCTTGACGCTGCTG", "fitted relative affinity [z-score]": -0.791}
{"Strand": "GCCTAGCACGACGGTTTCCTACTGCTAACGTGCTAGGTCTTGATTCGCTTGACGCTGCTG", "fitted relative affinity [z-score]": 1.88}
{"Strand": "GCCTAGCACACCGCATTCGAATTCAGAATGTGCTAGGTCTTGATTCGCTTGACGCTGCTG", "fitted relative affinity [z-score]": 2.47}
{"data": "Sample 3", "target": "Prothrombin, mature alpha-thrombin (F2, Homo sapiens, UniProt P00734)", "technique": "aptamer microarray, sandwich", "form": "DNA with 2'F-ANA", "medium": "in vitro", "tested at": "200 nM", "setting": "whole 15-mer aptamer, many near background", "together with": "Cy3 exosite-II aptamer, 400 nM", "direction": "higher = stronger binding"}
{"Strand": "GGTTGGTGTGGTTGG (2'F-ANA at 1 2 3 5 6 7 8 10 11 13 14)", "mean fluorescence intensity [a.u.]": 53.2}
{"Strand": "GGTTGGTGTGGTTGG (2'F-ANA at 1 3 4 5 6 7 10 13 14)", "mean fluorescence intensity [a.u.]": 47.5}
{"Strand": "GGTTGGTGTGGTTGG (2'F-ANA at 1 3 4 6 7 8 9 11)", "mean fluorescence intensity [a.u.]": 174}
{"Strand": "GGTTGGTGTGGTTGG (2'F-ANA at 1 5 9 15)", "mean fluorescence intensity [a.u.]": 58.2}
{"data": "Single results of other studies"}
{"Molecule": "PhoQ, residues 284 288 289 292 302 303 SSYNSA", "target": "PhoP, residues 12 14 15 18 19 DLLYY (Escherichia coli, UniProt P23836)", "assay": "Sort-seq, refers to: YFP reporter", "test system": "E. coli", "conditions": "PhoQ-PhoP variant library, together with: 10 µM Mg2+", "scale": "relative to: high Mg2+ state, higher = stronger signaling", "endpoint": "fold induction", "result": 2.58}
{"note": "A few entries again (sample 3):"}
{"Strand": "GGTTGGTGTGGTTGG (2'F-ANA at 1 5 9 15)", "mean fluorescence intensity [a.u.]": 58.2}
